{"data": "Published values gathered from unrelated publications", "note": "Every numbered part comes from another study and shows a few of its results, in no order. Substitutions count along the parent as printed."}
{"data": "Set 1", "target": "CCNB2, cyclin fold, Cln2 fusion (human)", "method": "yeast growth competition, sequencing", "matrix": "yeast", "notes": "weak parent motif", "reference": "not given", "reading": "higher = stronger binding", "parent": "MASTL docking peptide (human); PMIAKNLMCELDE; partner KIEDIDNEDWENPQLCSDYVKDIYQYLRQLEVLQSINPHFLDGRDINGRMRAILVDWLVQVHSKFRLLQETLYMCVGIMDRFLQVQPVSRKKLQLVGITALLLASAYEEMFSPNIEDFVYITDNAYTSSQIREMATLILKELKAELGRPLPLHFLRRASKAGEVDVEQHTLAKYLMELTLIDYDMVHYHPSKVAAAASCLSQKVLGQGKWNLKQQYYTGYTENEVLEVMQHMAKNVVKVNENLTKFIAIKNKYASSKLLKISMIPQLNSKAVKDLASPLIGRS"}
{"Change": "PMIAKNYMCELDE [L7Y]", "normalised enrichment score": -0.111}
{"Change": "PMIAKNLECELDE [M8E]", "normalised enrichment score": 0.428}
{"Change": "PMIAKNLMCESDE [L11S]", "normalised enrichment score": -0.165}
{"Change": "PMIAMNLMCELDE [K5M]", "normalised enrichment score": 0.0917}
{"Change": "PMIRKNLMCELDE [A4R]", "normalised enrichment score": 1.48}
{"Change": "PMIAKNLMCHLDE [E10H]", "normalised enrichment score": 0.101}
{"Change": "PGIAKNLMCELDE [M2G]", "normalised enrichment score": 1.1}
{"Change": "PMIATNLMCELDE [K5T]", "normalised enrichment score": -0.00566}
{"Change": "PMIAKELMCELDE [N6E]", "normalised enrichment score": -0.479}
{"Change": "PMIAKNLMCENDE [L11N]", "normalised enrichment score": -0.114}
{"Change": "PRIAKNLMCELDE [M2R]", "normalised enrichment score": 1.14}
{"Change": "PMIAKNLMDELDE [C9D]", "normalised enrichment score": 0.621}
{"Change": "PMIAKNLKCELDE [M8K]", "normalised enrichment score": -0.149}
{"Change": "PMIAKNMMCELDE [L7M]", "normalised enrichment score": -0.351}
{"Change": "PMWAKNLMCELDE [I3W]", "normalised enrichment score": 0.0918}
{"data": "Set 2", "target": "ABI1, truncated, D143A, DHFR fusion (Arabidopsis thaliana)", "method": "DHFR PCA, deep sequencing", "matrix": "yeast", "notes": "methotrexate growth selection, single substitutions", "together with": "(+)-ABA 2500 µM", "reference": "wild-type fitted maximum", "reading": "higher = stronger binding", "parent": "PYL1, truncated, DHFR fusion (Arabidopsis thaliana); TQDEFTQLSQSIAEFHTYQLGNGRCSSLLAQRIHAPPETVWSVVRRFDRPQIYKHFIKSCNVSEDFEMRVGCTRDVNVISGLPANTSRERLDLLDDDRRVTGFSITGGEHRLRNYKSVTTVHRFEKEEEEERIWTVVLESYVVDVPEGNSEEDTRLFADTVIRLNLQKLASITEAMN; partner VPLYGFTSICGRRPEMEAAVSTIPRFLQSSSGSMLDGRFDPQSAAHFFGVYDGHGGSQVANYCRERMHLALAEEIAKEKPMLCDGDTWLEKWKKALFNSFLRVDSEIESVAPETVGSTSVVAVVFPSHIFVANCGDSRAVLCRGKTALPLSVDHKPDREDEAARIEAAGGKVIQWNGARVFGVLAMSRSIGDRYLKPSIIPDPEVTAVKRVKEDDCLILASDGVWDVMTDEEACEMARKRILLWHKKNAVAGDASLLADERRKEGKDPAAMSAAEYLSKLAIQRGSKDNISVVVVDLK"}
{"Change": "S42T", "relative binding score": "98.2%"}
{"Change": "L169W", "relative binding score": "-12.2%"}
{"Change": "D97T", "relative binding score": "103%"}
{"Change": "L91D", "relative binding score": "-20.5%"}
{"Change": "D65F", "relative binding score": "94.7%"}
{"Change": "V100K", "relative binding score": "64.2%"}
{"Change": "D153G", "relative binding score": "65%"}
{"Change": "S117P", "relative binding score": "23.3%"}
{"Change": "L112F", "relative binding score": "103%"}
{"Change": "Q19T", "relative binding score": "99%"}
{"data": "Set 3", "target": "Centromere-binding protein 1, full length, N-terminal tag (CBF1, Saccharomyces cerevisiae, UniProt P17106, residues 1-351)", "method": "protein-binding microarray", "form": "double-stranded DNA, one strand shown", "matrix": "in vitro", "concentration": "0.8 µM", "notes": "whole 60-bp probe, no competitor", "reading": "higher = stronger binding", "all sequences stand within": "… GTCTTGATTCGCTTGACGCTGCTG", "sequence of UniProt P17106 (whole entry, looked up)": "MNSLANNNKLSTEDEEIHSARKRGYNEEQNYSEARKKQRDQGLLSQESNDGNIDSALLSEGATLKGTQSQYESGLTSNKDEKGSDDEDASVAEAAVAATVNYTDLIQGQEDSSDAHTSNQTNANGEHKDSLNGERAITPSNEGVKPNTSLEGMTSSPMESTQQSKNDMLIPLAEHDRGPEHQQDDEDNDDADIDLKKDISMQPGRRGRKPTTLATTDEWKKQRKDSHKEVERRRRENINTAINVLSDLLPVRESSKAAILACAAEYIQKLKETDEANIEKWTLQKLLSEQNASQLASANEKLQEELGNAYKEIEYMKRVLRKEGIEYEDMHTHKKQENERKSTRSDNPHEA"}
{"Strand": "GAAAATTTTTGAGCCCACATGCTTTCGAATGAGTAG", "fluorescence intensity [a.u.]": 677}
{"Strand": "CTACTCGTGCATCGTGATGTTATTTGTTACGTATTC", "fluorescence intensity [a.u.]": 798}
{"Strand": "CTACGTAACGGCCGTGATGCGGCCTGAGCTCACTTC", "fluorescence intensity [a.u.]": 496}
{"Strand": "CTATAGATAAATTATCATCACCTTTTTTACACTTTC", "fluorescence intensity [a.u.]": 543}
{"Strand": "GAATACTTTTCGTTCAACGTGATCTTTGTGTTCTAG", "fluorescence intensity [a.u.]": 1450}
{"Strand": "CTAAATACATGCAGGTGACTGATAGAAAAGACATTC", "fluorescence intensity [a.u.]": 2330}
{"Strand": "CCTAACTACTATACGCACGTTTCATAGCTTCGTACA", "fluorescence intensity [a.u.]": 590}
{"Strand": "GAATACAACCCCGAACCCGTGCGTGGGCTATTCTAG", "fluorescence intensity [a.u.]": 569}
{"Strand": "CTAAGGAAAATAAAATTCGTGATAAATACATGCTTC", "fluorescence intensity [a.u.]": 561}
{"Strand": "CTAGATAGTTATTGTTGCACCTGAGGCAAAAGCTTC", "fluorescence intensity [a.u.]": 558}
{"Strand": "GAACTTAAAAGTGTCCATGTGATGGGAGGGATCTAG", "fluorescence intensity [a.u.]": 1500}
{"Strand": "CTAATTTGAGCATCTCACATGGTTACGAATGTATTC", "fluorescence intensity [a.u.]": 790}
{"Strand": "CTATTTTTCACCTTCCACGTGGATATTTTCACGTTC", "fluorescence intensity [a.u.]": 2840}
{"Strand": "GAATATATCGGCGAGAGCGTGCGTTCTATCAACTAG", "fluorescence intensity [a.u.]": 505}
{"Strand": "CTATAAGTAATGATTTACGTGCCATTTTTTTTATTC", "fluorescence intensity [a.u.]": 507}
{"Strand": "GAAAGAGAAGCGAATGGTGTGATGAAATCGCGTTAG", "fluorescence intensity [a.u.]": 528}
{"Strand": "GAATACATAAAGAAGAAGGTGACAGAAATTTGCTAG", "fluorescence intensity [a.u.]": 549}
{"Strand": "GAATATGAAAAAGATCATGAGAAAATCGCAGAATAG", "fluorescence intensity [a.u.]": 590}
{"Strand": "CTACTTATCAAATGTCACCTATGTACGCTCCACTTC", "fluorescence intensity [a.u.]": 549}
{"data": "Set 4", "target": "Histone acetyltransferase KAT6A, winged helix 2, GST fusion (KAT6A, Homo sapiens, UniProt Q92794, residues 85-181)", "method": "protein binding microarray", "form": "double-stranded DNA, one strand shown", "matrix": "in vitro", "concentration": "not given", "notes": "8-mer, flanks averaged, mean of 2 arrays, mostly near background", "reference": "not given", "reading": "higher = stronger binding", "Target sequence (chain)": "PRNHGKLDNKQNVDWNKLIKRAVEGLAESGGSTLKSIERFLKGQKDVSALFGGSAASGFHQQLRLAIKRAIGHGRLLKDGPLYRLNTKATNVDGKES"}
{"Strand": "AGTAGGTG", "E-score": -0.255}
{"Strand": "AAGGATCA", "E-score": -0.0803}
{"Strand": "CGGCGCCA", "E-score": 0.0961}
{"Strand": "CAGTAGTA", "E-score": -0.107}
{"Strand": "AGCTCACC", "E-score": 0.0688}
{"Strand": "AAGCTGAT", "E-score": 0.0665}
{"Strand": "AACAGGCC", "E-score": -0.0505}
{"Strand": "AGCACGAT", "E-score": -0.00671}
{"Strand": "CATCAGTC", "E-score": -0.222}
{"Strand": "ACATAAGA", "E-score": 0.152}
{"Strand": "ACCGTCCC", "E-score": -0.148}
{"Strand": "CATATTCC", "E-score": -0.184}
{"Strand": "GTGTACTA", "E-score": -0.111}
{"Strand": "CTTGTATA", "E-score": 0.026}
{"Strand": "TATATCGA", "E-score": 0.0863}
{"Strand": "AATTCATA", "E-score": 0.129}
{"Strand": "ATAGAGAG", "E-score": -0.167}
{"Strand": "CTACAGAC", "E-score": -0.149}
{"Strand": "CCAGTTCG", "E-score": 0.208}
{"Strand": "AGAGGATC", "E-score": -0.0413}
{"Strand": "CGGTCCGA", "E-score": 0.0977}
{"Strand": "GCGCCTAA", "E-score": 0.139}
{"Strand": "GTTTTTAA", "E-score": 0.144}
{"Strand": "CGTCTCCA", "E-score": 0.0714}
{"Strand": "CCGATCGC", "E-score": -0.000655}
